# Published values gathered from unrelated publications.
# A part holds a random share of what one study measured.
# Sequence of UniProt P30530 (whole entry, looked up): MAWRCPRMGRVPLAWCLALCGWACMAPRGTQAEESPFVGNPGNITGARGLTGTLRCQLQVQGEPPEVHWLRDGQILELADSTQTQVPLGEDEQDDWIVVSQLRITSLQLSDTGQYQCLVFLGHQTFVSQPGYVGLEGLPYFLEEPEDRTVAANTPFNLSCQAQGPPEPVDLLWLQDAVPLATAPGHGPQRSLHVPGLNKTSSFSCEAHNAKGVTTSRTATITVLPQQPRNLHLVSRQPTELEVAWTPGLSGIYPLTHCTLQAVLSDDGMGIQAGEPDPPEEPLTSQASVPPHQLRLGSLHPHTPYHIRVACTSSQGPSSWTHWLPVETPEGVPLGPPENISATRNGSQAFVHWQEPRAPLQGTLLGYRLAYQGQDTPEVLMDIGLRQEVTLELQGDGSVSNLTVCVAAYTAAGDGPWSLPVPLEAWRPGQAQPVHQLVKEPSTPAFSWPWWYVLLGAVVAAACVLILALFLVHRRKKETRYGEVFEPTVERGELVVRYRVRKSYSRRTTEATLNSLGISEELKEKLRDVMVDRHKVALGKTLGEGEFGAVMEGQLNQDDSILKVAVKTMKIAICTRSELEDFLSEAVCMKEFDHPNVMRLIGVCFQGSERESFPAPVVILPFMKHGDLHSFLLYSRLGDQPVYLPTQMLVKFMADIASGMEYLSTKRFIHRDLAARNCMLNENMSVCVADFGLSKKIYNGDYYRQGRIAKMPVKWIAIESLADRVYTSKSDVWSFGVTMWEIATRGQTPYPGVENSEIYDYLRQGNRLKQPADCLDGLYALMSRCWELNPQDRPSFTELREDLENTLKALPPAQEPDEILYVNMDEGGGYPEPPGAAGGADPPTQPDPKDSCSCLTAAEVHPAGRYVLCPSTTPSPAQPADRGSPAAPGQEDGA
# Sequence of UniProt Q13554 (whole entry, looked up): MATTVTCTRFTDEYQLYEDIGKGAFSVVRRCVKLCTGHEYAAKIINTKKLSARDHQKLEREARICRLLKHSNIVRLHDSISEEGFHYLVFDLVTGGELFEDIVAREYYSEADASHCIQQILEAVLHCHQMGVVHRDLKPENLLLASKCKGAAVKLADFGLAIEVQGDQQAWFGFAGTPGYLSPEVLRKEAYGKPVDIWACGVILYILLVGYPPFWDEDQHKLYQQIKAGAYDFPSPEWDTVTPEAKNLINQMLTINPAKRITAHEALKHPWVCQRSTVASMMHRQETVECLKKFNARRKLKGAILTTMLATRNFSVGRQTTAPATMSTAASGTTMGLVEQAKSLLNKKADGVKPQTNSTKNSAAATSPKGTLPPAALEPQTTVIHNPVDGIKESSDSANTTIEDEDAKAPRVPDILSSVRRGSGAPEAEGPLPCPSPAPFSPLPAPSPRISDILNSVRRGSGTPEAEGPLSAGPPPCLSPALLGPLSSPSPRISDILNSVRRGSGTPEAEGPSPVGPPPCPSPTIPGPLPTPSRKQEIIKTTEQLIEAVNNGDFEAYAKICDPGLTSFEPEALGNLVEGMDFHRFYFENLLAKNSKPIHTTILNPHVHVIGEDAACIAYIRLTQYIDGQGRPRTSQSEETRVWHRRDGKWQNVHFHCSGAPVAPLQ
# Sequence of UniProt Q9BYP7 (whole entry, looked up): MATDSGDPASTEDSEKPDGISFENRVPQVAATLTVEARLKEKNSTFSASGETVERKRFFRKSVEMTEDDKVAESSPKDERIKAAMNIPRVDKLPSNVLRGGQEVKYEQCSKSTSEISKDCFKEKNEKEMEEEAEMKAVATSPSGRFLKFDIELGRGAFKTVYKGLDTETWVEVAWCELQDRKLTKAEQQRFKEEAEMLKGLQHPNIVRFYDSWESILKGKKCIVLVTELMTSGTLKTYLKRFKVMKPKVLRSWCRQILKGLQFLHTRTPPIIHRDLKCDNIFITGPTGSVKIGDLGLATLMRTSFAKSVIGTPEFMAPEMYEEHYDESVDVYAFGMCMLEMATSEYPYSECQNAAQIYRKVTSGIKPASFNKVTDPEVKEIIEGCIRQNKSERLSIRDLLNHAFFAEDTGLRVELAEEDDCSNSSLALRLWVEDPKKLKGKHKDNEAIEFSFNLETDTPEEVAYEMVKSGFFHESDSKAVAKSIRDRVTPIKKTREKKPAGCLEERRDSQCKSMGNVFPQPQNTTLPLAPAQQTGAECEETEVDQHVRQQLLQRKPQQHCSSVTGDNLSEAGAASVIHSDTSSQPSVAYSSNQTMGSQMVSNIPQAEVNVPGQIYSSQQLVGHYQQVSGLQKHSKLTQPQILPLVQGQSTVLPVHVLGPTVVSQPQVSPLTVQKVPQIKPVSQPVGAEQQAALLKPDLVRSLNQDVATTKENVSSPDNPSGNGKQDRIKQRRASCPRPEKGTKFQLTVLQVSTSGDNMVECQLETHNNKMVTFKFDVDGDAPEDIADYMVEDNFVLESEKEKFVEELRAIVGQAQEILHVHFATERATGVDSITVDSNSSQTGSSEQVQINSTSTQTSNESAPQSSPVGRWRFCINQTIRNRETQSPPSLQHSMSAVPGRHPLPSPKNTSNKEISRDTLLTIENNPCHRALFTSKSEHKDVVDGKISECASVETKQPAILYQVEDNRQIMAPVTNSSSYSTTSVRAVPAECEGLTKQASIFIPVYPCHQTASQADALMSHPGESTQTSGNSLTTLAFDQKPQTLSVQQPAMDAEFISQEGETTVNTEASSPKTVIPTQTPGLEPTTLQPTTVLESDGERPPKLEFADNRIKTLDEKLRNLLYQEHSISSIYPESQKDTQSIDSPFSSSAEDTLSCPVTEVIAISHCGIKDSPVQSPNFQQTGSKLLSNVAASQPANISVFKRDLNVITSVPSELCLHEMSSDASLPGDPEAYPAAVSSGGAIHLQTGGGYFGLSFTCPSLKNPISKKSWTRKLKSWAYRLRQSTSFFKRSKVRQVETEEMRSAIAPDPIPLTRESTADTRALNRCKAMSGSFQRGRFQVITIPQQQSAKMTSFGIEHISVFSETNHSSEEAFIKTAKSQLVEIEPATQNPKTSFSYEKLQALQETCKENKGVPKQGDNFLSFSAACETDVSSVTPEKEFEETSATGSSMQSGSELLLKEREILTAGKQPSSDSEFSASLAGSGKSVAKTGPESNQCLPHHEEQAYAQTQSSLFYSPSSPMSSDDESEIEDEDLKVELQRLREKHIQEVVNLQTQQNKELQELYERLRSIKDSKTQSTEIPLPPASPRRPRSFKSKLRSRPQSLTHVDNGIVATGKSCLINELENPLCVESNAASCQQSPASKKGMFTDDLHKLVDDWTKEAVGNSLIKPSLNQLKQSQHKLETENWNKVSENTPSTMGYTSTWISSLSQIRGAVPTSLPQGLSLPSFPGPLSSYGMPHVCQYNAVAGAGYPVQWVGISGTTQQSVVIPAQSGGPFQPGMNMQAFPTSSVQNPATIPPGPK
# Sequence of UniProt P00519 (whole entry, unmodified, looked up): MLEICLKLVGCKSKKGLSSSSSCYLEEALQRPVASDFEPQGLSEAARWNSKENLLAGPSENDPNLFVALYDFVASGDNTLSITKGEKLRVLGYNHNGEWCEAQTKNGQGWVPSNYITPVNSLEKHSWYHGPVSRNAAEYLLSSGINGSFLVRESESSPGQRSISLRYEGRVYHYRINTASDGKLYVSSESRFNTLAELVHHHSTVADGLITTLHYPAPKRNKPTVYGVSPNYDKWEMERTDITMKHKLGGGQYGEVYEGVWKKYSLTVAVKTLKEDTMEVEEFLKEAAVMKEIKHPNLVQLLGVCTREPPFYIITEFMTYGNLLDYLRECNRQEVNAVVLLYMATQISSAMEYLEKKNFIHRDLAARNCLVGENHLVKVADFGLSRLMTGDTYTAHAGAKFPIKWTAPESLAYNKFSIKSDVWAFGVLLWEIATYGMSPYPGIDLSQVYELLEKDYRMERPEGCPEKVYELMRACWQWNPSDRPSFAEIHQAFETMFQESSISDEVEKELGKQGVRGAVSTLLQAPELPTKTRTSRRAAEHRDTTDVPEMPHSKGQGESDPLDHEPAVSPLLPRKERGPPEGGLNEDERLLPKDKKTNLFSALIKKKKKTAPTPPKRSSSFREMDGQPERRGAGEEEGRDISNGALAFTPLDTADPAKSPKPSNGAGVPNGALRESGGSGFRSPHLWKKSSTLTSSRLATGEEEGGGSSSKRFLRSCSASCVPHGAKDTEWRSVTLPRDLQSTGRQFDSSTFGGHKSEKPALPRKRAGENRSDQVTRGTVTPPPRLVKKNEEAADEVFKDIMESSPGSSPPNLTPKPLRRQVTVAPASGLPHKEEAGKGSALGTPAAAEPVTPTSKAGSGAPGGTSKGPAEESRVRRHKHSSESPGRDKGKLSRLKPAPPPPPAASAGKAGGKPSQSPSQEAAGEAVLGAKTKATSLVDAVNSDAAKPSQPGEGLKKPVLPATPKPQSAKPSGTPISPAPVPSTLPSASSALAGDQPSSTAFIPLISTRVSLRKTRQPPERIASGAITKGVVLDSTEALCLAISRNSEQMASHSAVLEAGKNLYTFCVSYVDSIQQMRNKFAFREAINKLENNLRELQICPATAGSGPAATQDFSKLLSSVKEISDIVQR
# Sequence of UniProt Q14012 (whole entry, looked up): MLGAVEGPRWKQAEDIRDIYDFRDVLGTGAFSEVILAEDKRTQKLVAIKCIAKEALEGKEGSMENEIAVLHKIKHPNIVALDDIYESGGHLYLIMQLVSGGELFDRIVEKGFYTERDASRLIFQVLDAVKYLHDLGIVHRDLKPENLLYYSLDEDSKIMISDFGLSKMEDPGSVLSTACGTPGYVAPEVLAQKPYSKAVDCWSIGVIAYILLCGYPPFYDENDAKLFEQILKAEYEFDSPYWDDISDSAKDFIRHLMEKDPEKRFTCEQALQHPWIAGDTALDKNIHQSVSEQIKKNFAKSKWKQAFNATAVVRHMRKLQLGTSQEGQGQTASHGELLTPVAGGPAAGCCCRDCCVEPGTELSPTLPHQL

# Set 1
# Target: Diamine acetyltransferase 1 (Homo sapiens, UniProt P21673)
# Mode: inhibitor
# Tested at: 10 µM
# Relative to: control
# Residues (P21673 1-171): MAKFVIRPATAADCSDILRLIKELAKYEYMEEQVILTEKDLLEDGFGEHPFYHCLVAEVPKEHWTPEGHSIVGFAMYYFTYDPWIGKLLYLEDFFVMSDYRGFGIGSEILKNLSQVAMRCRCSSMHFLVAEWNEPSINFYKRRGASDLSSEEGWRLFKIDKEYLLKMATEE
SMILES,remaining activity [%]
O=c1ccc2ccccc2o1,99
O=C(O)[C@H](O)Cc1ccc(O)c(O)c1,88.7
CCCCCCCCCCCCCCCCCCCCCCCCCCCCCCO,90.2
CC[C@H](CC[C@@H](C)[C@H]1CC[C@H]2[C@@H]3CC=C4C[C@@H](O[C@@H]5O[C@H](CO)[C@@H](O)[C@H](O)[C@H]5O)CC[C@]4(C)[C@H]3CC[C@]12C)C(C)C,88
COc1cc2c(cc1O)CC[N+](C)(C)[C@@H]2Cc1ccc(O)cc1,115
O=c1cc(-c2ccc(O)c(O)c2)oc2cc(O)cc(O)c12,99.5

# Set 2
# Structure (SMILES): CCCCN(CCCC)C(=O)CN1C[C@H](c2cc(OC)c3c(c2)OCO3)[C@@H](C(=O)O)[C@@H]1CC(C)(C)CCC
# Tested at: 1 µM
target,observed,technique,remaining binding [%]
"Proto-oncogene tyrosine-protein kinase ROS (ROS1, Homo sapiens, UniProt P08922)",cell-free assay,competition with immobilised ligand,100
"Rhodopsin kinase GRK1 (GRK1, Homo sapiens, UniProt Q15835)",cell-free assay,competition with immobilised ligand,71.9
"Serine/threonine-protein kinase 32A (STK32A, Homo sapiens, UniProt Q8WU08)",cell-free assay,competition with immobilised ligand,100
"Epidermal growth factor receptor (EGFR, Homo sapiens, UniProt P00533, del752-759)",cell-free assay,competition with immobilised ligand,85
"Casein kinase I isoform delta (CSNK1D, Homo sapiens, UniProt P48730)",cell-free assay,competition with immobilised ligand,100
"Phosphatidylinositol 4,5-bisphosphate 3-kinase catalytic subunit alpha isoform (PIK3CA, Homo sapiens, UniProt P42336, E542K)",cell-free assay,competition with immobilised ligand,57.4
"Wee1-like protein kinase (WEE1, Homo sapiens, UniProt P30291)",cell-free assay,competition with immobilised ligand,95.4
"Tyrosine-protein kinase receptor TYRO3 (TYRO3, Homo sapiens, UniProt Q06418)",cell-free assay,competition with immobilised ligand,100
"Angiopoietin-1 receptor (TEK, Homo sapiens, UniProt Q02763)",cell-free assay,competition with immobilised ligand,90.5
"Tyrosine-protein kinase ABL1, phosphorylated (ABL1, Homo sapiens, UniProt P00519, F317I)",binding,,72.5
"Fibroblast growth factor receptor 2 (FGFR2, Homo sapiens, UniProt P21802)",cell-free assay,competition with immobilised ligand,100
"Ephrin type-A receptor 1 (EPHA1, Homo sapiens, UniProt P21709)",cell-free assay,competition with immobilised ligand,92.6
"Insulin-like growth factor 1 receptor (IGF1R, Homo sapiens, UniProt P08069)",cell-free assay,competition with immobilised ligand,100
"Dual specificity mitogen-activated protein kinase kinase 4 (MAP2K4, Homo sapiens, UniProt P45985)",cell-free assay,competition with immobilised ligand,74.4

# Set 3
# Compound: CC(C)S(=O)(=O)c1ccc2nccc(Nc3ccc4sc(C5CCCC5)nc4c3)c2c1.Cl
# Observed: kinase activity
# Mode: inhibitor
# Tested at: 1 µM
target,remaining activity [%]
"Focal adhesion kinase 1 (PTK2, Homo sapiens, UniProt Q05397)",95
"Serine/threonine-protein kinase NIM1 (NIM1K, Homo sapiens, UniProt Q8IY84)",101
"Leucine-rich repeat serine/threonine-protein kinase 2 (LRRK2, Homo sapiens, UniProt Q5S007)",113
"Serine/threonine-protein kinase PRP4 homolog (PRPF4B, Homo sapiens, UniProt Q13523)",94
"Calcium/calmodulin-dependent protein kinase type 1 (CAMK1, Homo sapiens, UniProt Q14012)",94
"Dual specificity protein kinase CLK3 (CLK3, Homo sapiens, UniProt P49761)",105
"NUAK family SNF1-like kinase 2 (NUAK2, Homo sapiens, UniProt Q9H093)",114
"Tyrosine-protein kinase receptor UFO (AXL, Homo sapiens, UniProt P30530)",98

# Set 4
# Structure (SMILES): CC(C)(C)c1nc2c3cc[nH]c(=O)c3c3cc(F)ccc3c2[nH]1
# Observed: enzyme activity
# Mode: inhibitor
# Tested at: 0.5 µM
# Relative to: control
target,remaining activity
"Ephrin type-A receptor 4 (EPHA4, Homo sapiens, UniProt P54764)",101%
"Dual specificity tyrosine-phosphorylation-regulated kinase 3 (DYRK3, Homo sapiens, UniProt O43781)",105%
"Cyclin-dependent kinase 6, with cyclin D3 (CDK6, Homo sapiens, UniProt Q00534)",87.8%
"Ephrin type-B receptor 4 (EPHB4, Homo sapiens, UniProt P54760)",88.2%
"Serine/threonine-protein kinase 17A (STK17A, Homo sapiens, UniProt Q9UEE5)",6.42%
"Cyclin-dependent kinase 4, with cyclin D3 (CDK4, Homo sapiens, UniProt P11802)",95.2%
"Homeodomain-interacting protein kinase 4 (HIPK4, Homo sapiens, UniProt Q8NE63)",107%
"Mitogen-activated protein kinase kinase kinase kinase 4 (MAP4K4, Homo sapiens, UniProt O95819)",38.4%
"Testis-specific serine/threonine-protein kinase 2 (TSSK2, Homo sapiens, UniProt Q96PF2)",92.5%
"Tyrosine-protein kinase Srms (SRMS, Homo sapiens, UniProt Q9H3Y6)",98.7%
"Calcium/calmodulin-dependent protein kinase type II subunit beta (CAMK2B, Homo sapiens, UniProt Q13554)",73.4%
"Tyrosine-protein kinase receptor UFO (AXL, Homo sapiens, UniProt P30530)",81.9%
"Ephrin type-B receptor 1 (EPHB1, Homo sapiens, UniProt P54762)",94.9%
"Phosphorylase b kinase gamma catalytic chain, skeletal muscle/heart isoform (PHKG1, Homo sapiens, UniProt Q16816)",34.5%
"Cyclin-dependent kinase 1, with cyclin B (CDK1, Homo sapiens, UniProt P06493)",74.9%
"MAP kinase-activated protein kinase 3 (MAPKAPK3, Homo sapiens, UniProt Q16644)",94.4%
"Serine/threonine-protein kinase 16 (STK16, Homo sapiens, UniProt O75716)",90.1%
"Serine/threonine-protein kinase WNK3 (WNK3, Homo sapiens, UniProt Q9BYP7)",90%
"Ribosomal protein S6 kinase alpha-6 (RPS6KA6, Homo sapiens, UniProt Q9UK32)",33.9%
"Homeodomain-interacting protein kinase 2 (HIPK2, Homo sapiens, UniProt Q9H2X6)",98.7%
"Tyrosine-protein kinase Blk (BLK, Homo sapiens, UniProt P51451)",93.5%
"Ribosomal protein S6 kinase alpha-5 (RPS6KA5, Homo sapiens, UniProt O75582)",58%

# A few entries again (set 4):
target,remaining activity
"Cyclin-dependent kinase 1, with cyclin B (CDK1, Homo sapiens, UniProt P06493)",74.9%
"MAP kinase-activated protein kinase 3 (MAPKAPK3, Homo sapiens, UniProt Q16644)",94.4%
"Cyclin-dependent kinase 4, with cyclin D3 (CDK4, Homo sapiens, UniProt P11802)",95.2%
"Ephrin type-B receptor 4 (EPHB4, Homo sapiens, UniProt P54760)",88.2%
"Mitogen-activated protein kinase kinase kinase kinase 4 (MAP4K4, Homo sapiens, UniProt O95819)",38.4%
